Results gathered from unrelated publications.
Compare with care: the assays were run in different laboratories. Several values in a cell are separate wells, animals, samples, runs or records. ± gives the spread as reported.
Sequence of UniProt P35348 (whole entry, looked up): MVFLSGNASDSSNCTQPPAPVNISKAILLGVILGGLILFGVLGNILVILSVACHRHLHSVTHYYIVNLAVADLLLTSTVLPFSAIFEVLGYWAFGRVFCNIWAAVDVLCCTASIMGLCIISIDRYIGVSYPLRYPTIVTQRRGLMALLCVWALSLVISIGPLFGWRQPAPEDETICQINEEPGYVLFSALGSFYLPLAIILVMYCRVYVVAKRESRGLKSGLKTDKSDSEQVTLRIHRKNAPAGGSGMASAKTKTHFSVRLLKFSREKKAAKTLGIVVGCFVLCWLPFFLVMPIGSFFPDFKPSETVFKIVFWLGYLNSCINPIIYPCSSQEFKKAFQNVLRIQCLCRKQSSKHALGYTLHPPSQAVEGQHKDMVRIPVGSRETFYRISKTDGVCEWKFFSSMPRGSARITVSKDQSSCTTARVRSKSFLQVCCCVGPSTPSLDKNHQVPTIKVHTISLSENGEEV
Sequence of UniProt P07948 (whole entry, looked up): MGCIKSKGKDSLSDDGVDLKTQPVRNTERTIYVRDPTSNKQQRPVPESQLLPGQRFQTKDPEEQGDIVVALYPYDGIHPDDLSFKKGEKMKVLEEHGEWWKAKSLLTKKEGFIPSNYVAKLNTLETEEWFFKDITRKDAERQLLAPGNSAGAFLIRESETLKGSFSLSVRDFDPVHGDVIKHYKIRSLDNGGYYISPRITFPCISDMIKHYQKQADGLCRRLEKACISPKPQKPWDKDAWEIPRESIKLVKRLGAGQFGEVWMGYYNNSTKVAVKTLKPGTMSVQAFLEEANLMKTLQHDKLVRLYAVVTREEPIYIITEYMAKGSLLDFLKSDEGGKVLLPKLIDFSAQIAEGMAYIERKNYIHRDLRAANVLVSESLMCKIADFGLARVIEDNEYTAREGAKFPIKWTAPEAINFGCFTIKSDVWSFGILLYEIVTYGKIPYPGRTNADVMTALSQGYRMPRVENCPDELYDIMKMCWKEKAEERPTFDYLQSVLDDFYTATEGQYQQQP
Sequence of UniProt Q9Y5X5 (whole entry, looked up): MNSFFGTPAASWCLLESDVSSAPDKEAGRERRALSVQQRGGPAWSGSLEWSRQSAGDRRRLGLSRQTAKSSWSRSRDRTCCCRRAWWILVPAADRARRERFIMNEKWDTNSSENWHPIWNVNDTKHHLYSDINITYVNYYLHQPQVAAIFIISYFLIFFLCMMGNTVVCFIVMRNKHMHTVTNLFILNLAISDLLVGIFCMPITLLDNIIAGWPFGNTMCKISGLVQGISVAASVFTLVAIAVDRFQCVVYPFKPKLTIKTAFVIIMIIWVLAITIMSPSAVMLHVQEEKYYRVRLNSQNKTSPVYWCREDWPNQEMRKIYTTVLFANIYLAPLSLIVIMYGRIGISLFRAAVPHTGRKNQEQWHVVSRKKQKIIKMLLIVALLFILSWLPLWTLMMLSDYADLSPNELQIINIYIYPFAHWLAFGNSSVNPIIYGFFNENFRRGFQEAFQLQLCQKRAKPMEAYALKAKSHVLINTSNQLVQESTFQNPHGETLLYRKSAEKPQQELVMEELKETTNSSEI
Sequence of UniProt P33533 (whole entry, looked up): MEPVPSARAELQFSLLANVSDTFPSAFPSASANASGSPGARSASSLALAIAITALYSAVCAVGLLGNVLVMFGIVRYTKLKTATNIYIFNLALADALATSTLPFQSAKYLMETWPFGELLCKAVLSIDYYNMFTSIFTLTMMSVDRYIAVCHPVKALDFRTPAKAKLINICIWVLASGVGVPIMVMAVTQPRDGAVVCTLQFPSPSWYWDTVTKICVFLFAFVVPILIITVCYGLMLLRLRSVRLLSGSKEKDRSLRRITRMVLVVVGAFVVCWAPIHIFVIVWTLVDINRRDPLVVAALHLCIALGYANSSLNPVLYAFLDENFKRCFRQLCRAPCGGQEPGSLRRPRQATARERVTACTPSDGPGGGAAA
Sequence of UniProt P04062 (whole entry, unmodified, looked up): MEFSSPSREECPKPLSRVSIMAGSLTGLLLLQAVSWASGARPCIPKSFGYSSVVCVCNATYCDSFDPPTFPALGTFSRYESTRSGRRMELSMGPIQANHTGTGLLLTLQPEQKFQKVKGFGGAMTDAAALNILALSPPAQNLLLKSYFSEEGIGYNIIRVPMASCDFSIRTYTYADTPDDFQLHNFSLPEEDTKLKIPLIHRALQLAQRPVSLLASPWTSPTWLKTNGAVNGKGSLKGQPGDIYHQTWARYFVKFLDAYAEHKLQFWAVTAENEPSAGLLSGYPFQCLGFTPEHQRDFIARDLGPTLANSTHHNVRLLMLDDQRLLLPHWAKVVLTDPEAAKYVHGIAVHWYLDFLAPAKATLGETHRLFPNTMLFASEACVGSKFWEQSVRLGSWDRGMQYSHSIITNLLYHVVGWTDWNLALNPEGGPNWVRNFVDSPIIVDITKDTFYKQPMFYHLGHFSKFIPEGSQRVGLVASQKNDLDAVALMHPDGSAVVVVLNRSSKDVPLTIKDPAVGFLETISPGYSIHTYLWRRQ
Sequence of UniProt P00915 (whole entry, looked up): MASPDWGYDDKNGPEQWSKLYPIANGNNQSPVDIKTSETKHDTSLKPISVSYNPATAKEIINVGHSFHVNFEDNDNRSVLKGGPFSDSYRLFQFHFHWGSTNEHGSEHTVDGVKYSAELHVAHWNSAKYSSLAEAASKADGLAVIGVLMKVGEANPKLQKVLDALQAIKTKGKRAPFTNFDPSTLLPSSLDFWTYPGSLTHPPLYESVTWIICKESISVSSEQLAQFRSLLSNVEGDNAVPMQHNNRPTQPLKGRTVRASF
Sequence of UniProt P06276 (whole entry, looked up): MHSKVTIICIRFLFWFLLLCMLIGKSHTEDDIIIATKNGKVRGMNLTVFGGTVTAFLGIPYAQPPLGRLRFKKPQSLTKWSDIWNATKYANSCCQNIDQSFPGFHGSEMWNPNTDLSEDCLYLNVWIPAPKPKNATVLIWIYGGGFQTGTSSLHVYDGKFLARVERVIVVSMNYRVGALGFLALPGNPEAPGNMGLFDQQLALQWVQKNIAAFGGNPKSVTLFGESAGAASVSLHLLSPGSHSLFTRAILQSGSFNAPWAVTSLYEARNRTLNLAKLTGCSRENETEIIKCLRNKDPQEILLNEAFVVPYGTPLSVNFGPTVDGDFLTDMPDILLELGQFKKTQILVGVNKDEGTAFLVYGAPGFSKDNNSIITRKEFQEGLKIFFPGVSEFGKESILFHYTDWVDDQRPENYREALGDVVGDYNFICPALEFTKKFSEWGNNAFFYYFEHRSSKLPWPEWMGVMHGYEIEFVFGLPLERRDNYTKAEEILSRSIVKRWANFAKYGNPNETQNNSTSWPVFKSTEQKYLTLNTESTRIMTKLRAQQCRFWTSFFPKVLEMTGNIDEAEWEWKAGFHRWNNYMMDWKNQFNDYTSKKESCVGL
Sequence of UniProt P50406 (whole entry, looked up): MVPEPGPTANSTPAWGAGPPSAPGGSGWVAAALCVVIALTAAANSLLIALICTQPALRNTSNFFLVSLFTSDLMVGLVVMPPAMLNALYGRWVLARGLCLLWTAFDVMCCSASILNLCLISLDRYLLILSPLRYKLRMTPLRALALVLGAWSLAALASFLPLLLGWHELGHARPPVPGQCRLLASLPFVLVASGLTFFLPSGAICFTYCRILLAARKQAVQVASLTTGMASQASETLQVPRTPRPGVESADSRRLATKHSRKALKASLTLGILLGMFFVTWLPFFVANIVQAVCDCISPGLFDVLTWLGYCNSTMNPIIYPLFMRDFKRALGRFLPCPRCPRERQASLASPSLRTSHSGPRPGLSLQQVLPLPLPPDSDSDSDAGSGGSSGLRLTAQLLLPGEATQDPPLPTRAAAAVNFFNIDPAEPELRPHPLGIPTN
Sequence of UniProt Q9NSD7 (whole entry, looked up): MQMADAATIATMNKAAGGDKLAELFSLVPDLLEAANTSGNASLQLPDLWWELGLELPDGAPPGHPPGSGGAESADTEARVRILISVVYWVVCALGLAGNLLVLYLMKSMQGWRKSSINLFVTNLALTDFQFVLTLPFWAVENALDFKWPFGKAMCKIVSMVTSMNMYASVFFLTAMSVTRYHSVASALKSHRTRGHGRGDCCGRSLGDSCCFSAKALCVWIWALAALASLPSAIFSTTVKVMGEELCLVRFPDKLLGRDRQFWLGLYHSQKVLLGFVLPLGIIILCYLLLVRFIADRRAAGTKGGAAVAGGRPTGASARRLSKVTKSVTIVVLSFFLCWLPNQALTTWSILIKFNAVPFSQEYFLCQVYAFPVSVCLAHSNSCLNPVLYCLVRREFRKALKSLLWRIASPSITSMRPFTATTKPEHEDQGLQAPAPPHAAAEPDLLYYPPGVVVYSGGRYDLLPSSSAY

With `CCSc1nnc(-c2ccc(S(=O)(=O)NC(=O)COC(C)=O)cc2)o1` the Ki was 29.6 nM (CA1 (Homo sapiens, UniProt P00915); enzyme activity, inhibitor).
The Ki of `CC[C@@H]1NC(=O)[C@H](CCCNC(=N)N)NC(=O)[C@H](NC(=O)C(C)C)CCNC(=O)c2cc(F)c(c(F)c2)N=Nc2c(F)cc(cc2F)C(=O)NCCNC(=O)[C@@H](Cc2ccccc2)NC1=O` is reported as 64.7 nM (WDR5 (Homo sapiens, UniProt P61964); competitive fluorescence polarization; trans PSS at 405 nm).
For `OC[C@@H]1[C@@H](O)[C@H](O)[C@@H](O)[C@H]2N[C@@H]12`, the Ki was 6800 nM (GBA1 (Homo sapiens, UniProt P04062, R534H); enzyme activity, inhibitor).
With `NCC(=O)NCC1(Nc2ccccc2)CCN(Cc2ccccc2)CC1` the Ki was 3220 nM (Neuropeptide FF receptor 2 (Homo sapiens, UniProt Q9Y5X5); cell-free assay).
The Ki of `CC(C)C(=O)N[C@H]1c2nc(CCc3ccccc3)cn2[C@H](CO)[C@@H](O)[C@@H]1O` is reported as 550 ± 10 nM (human lysosomal hexosaminidase A/B).
For `CC[C@H](C)[C@@H]1NC(=O)[C@H](Cc2ccccc2)NC(=O)[C@@](C)(NC(=O)[C@H](CCCNC(=N)N)NC(=O)CNC(=O)[C@H](CO)NC(=O)[C@H](CC(C)C)NC(=O)[C@@H](N)CCCNC(=N)N)CCCC=CCCC[C@@](C)(C(=O)N[C@H](C(=O)N[C@H](C(=O)N[C@@H](Cc2ccccc2)C(=O)N[C@H](C(=O)N[C@@H](CO)C(=O)NCC(=O)NCC(=O)N[C@@H](CO)C(=O)N[C@@H](CCCNC(=N)N)C(=O)N[C@@H](Cc2c[nH]c3ccccc23)C(=O)O)[C@@H](C)O)[C@@H](C)CC)C(C)C)NC(=O)[C@H](CCCNC(=N)N)NC1=O`, the Ki was 151 nM (RXFP3 (Homo sapiens, UniProt Q9NSD7); ligand displacement).
`CCN1CCN(C2=Nc3cc(Cl)ccc3Nc3ccccc32)CC1` gave a Ki of 46 nM and 16 to 46 nM (ADRA1A (Homo sapiens, UniProt P35348); ligand displacement, radioligand).
`CCc1cc(Cc2ccccc2)cc2c1NCCC2NC(=O)C(N)Cc1c(C)cc(O)cc1C` (stereo not drawn) has a Ki of 1.9 nM (Oprd1 (Rattus norvegicus, UniProt P33533); ligand displacement, radioligand; cell membranes).
`CN1CCN(c2ccc3cnn(S(=O)(=O)c4cccc5ccccc45)c3c2)CC1` gave a Ki of 1 nM (HTR6 (Homo sapiens, UniProt P50406); ligand displacement, radioligand; cell membranes).
With `COc1cc(/C=C/C(=O)CC(=O)/C=C/c2ccc(OC(=O)CCc3c[nH]c4ccccc34)c(OC)c2)ccc1OC(=O)CCc1c[nH]c2ccccc12` the Ki was 49000 nM (Cholinesterase (BCHE, Homo sapiens, UniProt P06276); enzyme activity, inhibitor).
For `C=C(c1ccccc1)[C@@H](N)P(=O)(O)O`, the Ki was 40 nM (PAL1 (Petroselinum crispum, UniProt P24481); enzyme activity, inhibitor, absorbance; pH 8.8).
`CNC(=O)C1CCN(c2ccccc2NC(=O)c2ccc(-c3cc(O)ccc3C)c(C)n2)CC1` gave a Ki of 0.8 nM (Tyrosine-protein kinase Lyn, isoform A (LYN, Homo sapiens, UniProt P07948); LanthaScreen binding).

A few entries again:
For `OC[C@@H]1[C@@H](O)[C@H](O)[C@@H](O)[C@H]2N[C@@H]12`, the Ki was 6800 nM (GBA1 (Homo sapiens, UniProt P04062, R534H); enzyme activity, inhibitor).
